Published values collected from several papers.
Protocols differ between the studies behind these lines. pIC50: −log10 of the molar value.
Cell line: DU-145
Observed: cell growth or viability

With O=C(N=P12CN3CN(CN(C3)C1)C2)c1ccccc1Br the pIC50 was under 3.30 (MTT; 24 h).
The pIC50 of COc1cccc2c1C(=O)c1c(O)c3c(c(O)c1C2=O)C[C@@](O)(C(=O)CO)C[C@@H]3O[C@H]1C[C@H](N)[C@H](O)[C@H](C)O1 is reported as 4.85 (MTT).
The pIC50 of C[C@]1([N+](=O)[O-])C(=O)c2ccccc2O[C@@H]1CC(=O)NC1CCCC1 is reported as 5.10 (SRB; 96 h).
CC(=O)O[C@H]1C(=O)[C@@]2(C)[C@H]([C@H](OC(=O)c3ccccc3)[C@]3(O)C[C@H](OC(=O)[C@H](O)[C@@H](NC(=O)c4ccccc4)c4ccccc4)C(C)=C1C3(C)C)[C@]1(OC(C)=O)CO[C@@H]1C[C@@H]2O has a pIC50 of about 8.70 (MTT; 48 h).
O=C1[N-][Au]([Cl])([Cl])[n+]2ccccc21 has a pIC50 of 4.70 (MTT; 24 h).
With C[C@]1([N+](=O)[O-])C(=O)c2cc(F)ccc2O[C@@H]1CC(=O)NC12CC3CC(CC(C3)C1)C2 the pIC50 was 5.92 (SRB; 96 h).
The pIC50 of CC(=O)Nc1ccc(-c2ccc(/C=C/C(=O)O)cc2Cl)cc1C12CC3CC(CC(C3)C1)C2 is reported as under 5.30 (72 h).
With CCCCNC(=O)C[C@H]1Oc2ccccc2C(=O)[C@]1(C)[N+](=O)[O-] the pIC50 was 4.80 (SRB; 96 h).
For Cc1ccc(C(=S)SCC(=O)O)cc1, the pIC50 was about 3.00 (trypan blue).

For quick reference, copied from above:
CC(=O)O[C@H]1C(=O)[C@@]2(C)[C@H]([C@H](OC(=O)c3ccccc3)[C@]3(O)C[C@H](OC(=O)[C@H](O)[C@@H](NC(=O)c4ccccc4)c4ccccc4)C(C)=C1C3(C)C)[C@]1(OC(C)=O)CO[C@@H]1C[C@@H]2O has a pIC50 of about 8.70 (MTT; 48 h).
